Published values of several laboratories.
A part holds a random share of what one study measured.

Block 1
Target: Replicase polyprotein 1ab, nsp13 helicase (rep, Severe acute respiratory syndrome coronavirus 2, UniProt P0DTD1)
Action: inhibitor
Tested at: 20 µM
With `COC(=O)Nc1ccc(-c2nc(N3CCOCC3)c3cnn(C4CCN(Cc5cccnc5)CC4)c3n2)cc1` the inhibition was -3.87%.
For `CO[C@@H]1[C@H](N(C)C(=O)c2ccccc2)C[C@H]2O[C@]1(C)n1c3ccccc3c3c4c(c5c6ccccc6n2c5c31)C(=O)NC4`, the inhibition was 2.55%.
With `COC(=O)c1ccc2c(c1)nc(NC(=O)c1ccccc1)n2CCCc1ccccc1` the inhibition was 2.79%.
`CC(C)C[C@H](NC(=O)[C@@H](Cc1c[nH]c2ccccc12)NC(=O)[C@H](Cc1ccc(O)cc1)NC(=O)[C@H](CO)NC(=O)[C@H](Cc1c[nH]c2ccccc12)NC(=O)[C@H](Cc1cnc[nH]1)NC(=O)[C@@H]1CCC(=O)N1)C(=O)N[C@@H](CCCN=C(N)N)C(=O)N1CCC[C@H]1C(=O)NCC(N)=O` has an inhibition of -0.51%.
`CCc1nc(-c2cccc(C)c2)c(-c2ccnc(NC(=O)c3ccccc3)c2)s1` has an inhibition of 7.95%.
For `CCCC(=O)Nc1ccc(OCC(O)CNC(C)C)c(C(C)=O)c1` (stereo not shown), the inhibition was -4.37%.
`CC(C)=CCC[C@](C)(O[C@@H]1O[C@H](CO)[C@@H](O)[C@H](O)[C@H]1O)[C@H]1CC[C@]2(C)[C@@H]1[C@H](O)C[C@@H]1[C@@]3(C)CC[C@H](O)C(C)(C)[C@@H]3CC[C@]12C` has an inhibition of 4.6%.
For `CCN1CCN(c2ccc(Nc3cc(N(C)C(=O)Nc4c(Cl)c(OC)cc(OC)c4Cl)ncn3)cc2)CC1`, the inhibition was 12.6%.
With `CC1=C(CC(=O)O)c2cc(F)ccc2/C1=C\c1ccc([S+](C)[O-])cc1` (stereo not shown) the inhibition was 23%.
With `CCCCC(CC)COc1ccc(-c2nc(-c3ccc(OC)cc3)nc(-c3ccc(OCC(CC)CCCC)cc3O)n2)c(O)c1` (stereo not shown) the inhibition was 6.08%.
`NC(=O)CN1C=CCC(C(N)=O)=C1` has an inhibition of 2.94%.
The inhibition of `C=C(C)[C@@H]1CC=C(CO)CC1` is reported as 0.9%.
For `CN1C(=O)OC(C)(C)C1=O`, the inhibition was 8.21%.
`CC(C)C[C@H](NC(=O)CN(C)C(=O)[C@H](Cc1ccccc1)NC(=O)[C@H](Cc1ccccc1)NC(=O)[C@H](CCC(N)=O)NC(=O)[C@H](CCC(N)=O)NC(=O)[C@@H]1CCCN1C(=O)[C@H](CCCCN)NC(=O)[C@@H]1CCCN1C(=O)[C@@H](N)CCCN=C(N)N)C(=O)N[C@@H](CCS(C)(=O)=O)C(N)=O` has an inhibition of 5.2%.
`CN1CCCC1CCSc1ccc(O)cc1` (stereo not shown) gave an inhibition of 0.65%.
With `C[C@]12Cc3c[nH]nc3C[C@@H]1CC[C@@H]1[C@@H]2CC[C@@]2(C)[C@H]1CC[C@]2(C)O` the inhibition was 7.42%.
`CN1CCN(C2=Cc3ccccc3Oc3ccc(Cl)cc32)CC1` gave an inhibition of 6.56%.
For `CC(=O)Nc1ccc(Cc2ccc(NC(C)=O)cc2)cc1`, the inhibition was 3.46%.
With `CCC(N)C(O)c1ccc(O)c(O)c1` (stereo not shown) the inhibition was 4.78%.
`COc1ccc(-n2[nH]c3c4c(ncc3c2=O)CCCCC4)cc1` gave an inhibition of 1.06%.
With `C[S+]([O-])CCCCN=C=S` (stereo not shown) the inhibition was 9.05%.
`c1ccc(Cn2c(N3CCNCC3)nc3ccccc32)cc1` gave an inhibition of -2.29%.
The inhibition of `CCCn1c(=O)c2[nH]c(-c3cnn(Cc4cccc(C(F)(F)F)c4)c3)nc2n(CC)c1=O` is reported as -0.88%.
With `CN(C)CCOc1ccc(/C(=C(/CCCl)c2ccccc2)c2ccccc2)cc1` the inhibition was 10.8%.
`CC(=O)Nc1ccc(S(=O)(=O)c2ccc(NC(C)=O)cc2)cc1` has an inhibition of 9.18%.

Block 2
Target: Replicase polyprotein 1ab, main protease (rep, Severe acute respiratory syndrome coronavirus 2, UniProt P0DTD1)
Observed: enzyme activity
Action: inhibitor
Tested at: 20 µM
`CS/C(N)=C(C#N)/C(C#N)=C(\N)SC` has an inhibition of -9.69%.
With `O=C(O)C(=O)CBr` the inhibition was -18.7%.
`CCOc1ccc(Nc2nc(-c3c(C)nc4ccccn34)cs2)cc1` has an inhibition of -23.7%.

Block 3
Cell line: HEK-293T
Observed: pseudovirus infection
Method: FDA-approved drug library screen
Organism: VSV pseudotyped with SARS-CoV-2 spike
Tested at: 10 µM
Time: 16 h
Reference: vehicle-treated
`CN(C)CCOC(C)(c1ccccc1)c1ccccn1` (stereo not shown) has a GFP-positive cells of 103%.
The GFP-positive cells of `Cc1cc2nc3c(=O)[nH]c(=O)nc-3n(C[C@H](O)[C@H](O)[C@H](O)CO)c2cc1C` is reported as 76.6%.
`C[C@@H]1[C@H](O)[C@@H](C)/C=C/C=C/C=C/C=C/C=C/C=C/C=C/[C@H](O[C@@H]2O[C@H](C)[C@@H](O)[C@H](N)[C@@H]2O)C[C@@H]2O[C@](O)(C[C@@H](O)C[C@@H](O)[C@H](O)CC[C@@H](O)C[C@@H](O)CC(=O)O[C@H]1C)C[C@H](O)[C@H]2C(=O)O` gave a GFP-positive cells of 91.7%.

Block 4
Target: Interferon regulatory factor 5, full length, phosphomimetic (IRF5, Homo sapiens, UniProt Q13568-2, residues 1-514, S451D/S453D/S456D/S462D)
Method: protein-binding microarray
Form: double-stranded DNA, one strand shown
Medium: in vitro
Tested at: 940 nM top
Notes: 60-bp whole probe
Added: salmon DNA 0.4 mg/ml
Reference: random background probes
Reading: higher = stronger binding
Constant ends, left off below: GCCTAGCAC … GTCTTGATTCGCTTGACGCTGCTG
Under “fitted relative affinity”, `TTAGATATCGGGACTGGATGAGTGCTA` is recorded as -0.292 z-score.
`GACCGTCTCCTTATCCTGACGTGCTAG`: “fitted relative affinity” 0.451 z-score.
`GACGGACTGCGGTATCGGGACGTGCTA` — result for “fitted relative affinity”: 0.168 z-score.
Under “fitted relative affinity”, `TTAGGTTTGGGTCTCGGTTAGTGCTAG` is recorded as 2.12 z-score.
`GACGTTTTCGGGACTGGAGACGTGCTA`: “fitted relative affinity” 0.384 z-score.
For `GACGGTATCGACTATCAGGACGTGCTA`, “fitted relative affinity” read 4.37 z-score.
`GACGGTTTCCTTATCCTAACGTGCTAG` — result for “fitted relative affinity”: 1.56 z-score.
`TTCTATCTCTGTTTTTGCTTGTGCTAG`: “fitted relative affinity” 2.2 z-score.

Block 5
Target: Histone acetyltransferase KAT6A, winged helix 1, GST fusion (KAT6A, Homo sapiens, UniProt Q92794, residues 1-85)
Method: protein binding microarray
Form: double-stranded DNA, one strand shown
Medium: in vitro
Tested at: not given
Notes: 8-mer, flanks averaged, mean of 2 arrays, mostly near background
Reference: not given
Reading: higher = stronger binding
Construct (chain): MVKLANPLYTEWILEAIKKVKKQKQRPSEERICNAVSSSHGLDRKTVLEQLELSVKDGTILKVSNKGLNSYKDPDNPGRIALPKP
`CGCATTCC` has an E-score of 0.198.
For `GCTAAAAC`, the E-score was 0.0734.
For `TATCGTAA`, the E-score was 0.0805.
For `GTACTGTA`, the E-score was 0.0512.
With `CAGTGTAC` the E-score was -0.0204.
The E-score of `AGCTACTA` is reported as 0.0323.
With `AGGGTAAT` the E-score was -0.0986.
With `CCACAACA` the E-score was -0.167.

Block 6
Target: RNA binding protein fox-1 homolog 2, RRM domain, GST-SBP tag (RBFOX2, Homo sapiens, UniProt O43251-10, residues 100-194)
Method: RNA Bind-n-Seq
Form: RNA
Medium: in vitro
Tested at: 365 nM
Notes: natural RNA segment, single round, ends assumed
Reference: no-protein control
Reading: higher = stronger binding
Construct (chain): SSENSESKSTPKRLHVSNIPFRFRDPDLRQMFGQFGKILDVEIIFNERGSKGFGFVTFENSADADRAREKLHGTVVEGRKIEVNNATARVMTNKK
`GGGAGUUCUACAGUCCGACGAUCGCUCCUUCACACCCCUUCCAAAAGUCAGUCACAGACCACUGCAACAUGCCUUCCCUGCUGGAUCAUUAUAUACAUUCAGAUUGUGAGUGGAUUGCCUUGGUUGACUUUUAUGGAAUUCUCGGGUGCCAA` — result for “RBNS enrichment (R)”: 0.51.
`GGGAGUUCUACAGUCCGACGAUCGACAGCUUAAUGGCUGAUGCUCGUCUUCACAGCCCGUGGCGGGCUUUAACGUAGCUCGAAUCUGGUACACGCAUAAAGUUUUACGGUCAAGUCCUUUUCUUUCUUCUUGAUGGAAUUCUCGGGUGCCAA` — result for “RBNS enrichment (R)”: 0.274.
`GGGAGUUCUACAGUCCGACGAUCCCUUCAGACACUCUGCCUCUUAGUGCCAAACCCACCGUCAGACCAAGAGUCAGGACUUCAGGACUCUGUCCUUCCUUCCCACUCAUCGCCCUUGCAGACAGCGUGUGCUUUGGAAUUCUCGGGUGCCAA` — result for “RBNS enrichment (R)”: 0.405.
Under “RBNS enrichment (R)”, `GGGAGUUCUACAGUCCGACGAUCGAGGGAGAGGUGGUGUGGCUUGCCCUGCUGAGCCUUCUCGGCAGGAAUAAUAGUAAUAAAUGCACUUUUCACACUAAAAGUUUCUUUGUUCUCCUGUUAAGCCUAGAUCUUGGAAUUCUCGGGUGCCAA` is recorded as 0.29.
`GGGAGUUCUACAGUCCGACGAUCACAAACACUGGACACCAUCACCUCUUUGGAACUGCCAGACCCUGGGAGUUCCCAGCGCGAAAGGUCUGCUCCCGUUCCUCUGUCUCUGUGAAUAAAUGUGAGUUCGUGCAUGGAAUUCUCGGGUGCCAA`: “RBNS enrichment (R)” 0.498.
Under “RBNS enrichment (R)”, `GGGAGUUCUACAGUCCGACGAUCGCUGAGAGCUUUUAGUAAAAAUAGGCAUUUAUUUAAUAUUUCCCUGUUCCUUUGGCAAGCUUUAUCAGUAGCUUAACAACAGAAGAGAAGAGUUCAAACAGAUGAUGUUUUGGAAUUCUCGGGUGCCAA` is recorded as 0.654.
`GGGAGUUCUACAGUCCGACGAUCCUCCCAGCUGCCCUCCUGCUUCGGGCCUGGGCCGAGGGCCUUGUGUAGGCCAUGUUCCUCGGGCAGCUGCCCCGGGCCGGAGCUGGGCACUCCAGCGGCCCUGGCGCGUGUGGAAUUCUCGGGUGCCAA` — result for “RBNS enrichment (R)”: 0.415.
`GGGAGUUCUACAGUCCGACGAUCGUUUGAAGAGAAACCUCCGGUGUGAGAUAUACAAAUAUAUUUAAUUGUGUCAUAUUAAACUUCUGAUUCACAUUCAGGUGGUCUUUAUUUGGGGAGGAGGAACAAUUGUUUGGAAUUCUCGGGUGCCAA`: “RBNS enrichment (R)” 0.668.

Excerpt of the above (block 1):
`CN1CCCC1CCSc1ccc(O)cc1` (stereo not shown) gave an inhibition of 0.65%.
With `C[C@]12Cc3c[nH]nc3C[C@@H]1CC[C@@H]1[C@@H]2CC[C@@]2(C)[C@H]1CC[C@]2(C)O` the inhibition was 7.42%.
`CN1CCN(C2=Cc3ccccc3Oc3ccc(Cl)cc32)CC1` gave an inhibition of 6.56%.
For `CC(=O)Nc1ccc(Cc2ccc(NC(C)=O)cc2)cc1`, the inhibition was 3.46%.
With `CCC(N)C(O)c1ccc(O)c(O)c1` (stereo not shown) the inhibition was 4.78%.
`COc1ccc(-n2[nH]c3c4c(ncc3c2=O)CCCCC4)cc1` gave an inhibition of 1.06%.
